Assay results of several laboratories.
Each numbered part is a random draw from the data of one study; scales do not carry over between parts. Changes are numbered by the printed parent chain.

Study 1
Target: RNA binding protein fox-1 homolog 2, RRM domain, GST-SBP tag (RBFOX2, Homo sapiens, UniProt O43251-10, residues 100-194)
Method: RNA Bind-n-Seq
Form: RNA
Medium: in vitro
Tested at: 365 nM
Notes: natural RNA segment, single round, ends assumed
Reference: no-protein control
Reading: higher = stronger binding
Target sequence (chain): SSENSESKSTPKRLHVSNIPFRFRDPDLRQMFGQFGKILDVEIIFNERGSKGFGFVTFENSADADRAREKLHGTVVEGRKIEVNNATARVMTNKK
Oligonucleotide	RBNS enrichment (R)
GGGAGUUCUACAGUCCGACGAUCCCGAAGAUUCUGCGUGUCCUUCCACCCACCCAUGUCAACUGCCCCUUCUGAGUCUCUCCAGCGACCUGGGGCCCCUGAGGGCCCGAGGAGCUGAUAAAUAAGGGCUGAGGUGGAAUUCUCGGGUGCCAA	0.26
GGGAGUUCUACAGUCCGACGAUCAGAUCCAUCUGCCUGAGACCCCCGAACUCCUCUCCUCCCAAGCAGAGGCGAGUGAGUGGCAUUAGCUCCCGGACCCAUUCCCGGUCCUAGCUGGGCAUGGGGCUGACGGAUGGAAUUCUCGGGUGCCAA	0.219
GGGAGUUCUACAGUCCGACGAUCUAAAUGCCUUUUUGUCCAUCCCUUUUUUCUUUGUUGUUUUUGUUGAAAACAAACUGGAAACUUGUUUCUUUUUUUGUAUAAAUGAGAGAUUGCAAAUGUAGUGUAUCACUUGGAAUUCUCGGGUGCCAA	1.24
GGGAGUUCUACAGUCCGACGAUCAGAAGCCAGAGUCACCGAAGGAUUCUCCUUUUCCGACGCGCUUGGAGUGAACUACACAUAGACCACACUGCGGGGCGAGAGCAUUACAUAACAUGGCCACUAGGAGGGUUUGGAAUUCUCGGGUGCCAA	0.493
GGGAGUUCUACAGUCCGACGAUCGCCUUUGUUGCUGCUAACACUGGAGGUGGGCGUUCCUAGCUGCAGUGUGCUGCUAUGCCUCUCUGCCUAGGAACCAAAUUUUAAAGAAGUCAGAGACAUUUUGAGGUGGUUGGAAUUCUCGGGUGCCAA	0.415
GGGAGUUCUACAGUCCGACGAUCUCCCCGGAAUUAUCAAACAGCCACCGGGUGACUUUCUGGCUUCCAGAUCCAUCUGCCUGAGACCCCCGAACUCCUCUCCUCCCAAGCAGAGGCGAGUGAGUGGCAUUAGCUGGAAUUCUCGGGUGCCAA	0.34
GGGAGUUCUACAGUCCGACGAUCGGGUCCCCUGGGCCAGCCAGCGAUUCUACUCCCUCAACGUGUAUCUCUCCUUCCCUCCCACCACCACCAGGACCCCCGGGGCUGUAGCCUCCUCUCUGAUCAGAGCCGACUGGAAUUCUCGGGUGCCAA	0.782
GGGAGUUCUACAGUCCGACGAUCUUGCAUUACUGCAAAACAGCAAAAACCGAAUAACCCGAGCCCUGCUGCUUUCUGAGCCCUGGGCCUGUGUCCUCCUAGAACUUCCAGGUUCCCGUUGCUUUGUUUUUCUGUGGAAUUCUCGGGUGCCAA	0.413
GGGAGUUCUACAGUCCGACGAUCUGGUGAUCCUGUACGGUGUGGUCUAUGAAUUGCUGCACUGCAAAGCCACACAGCUGCAAAACGUUGAAGAAAAUCAUUGAUGUAUAAAAAUUGCAGUAUCUUUCAAAUCAUGGAAUUCUCGGGUGCCAA	0.465
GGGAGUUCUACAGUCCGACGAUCAGACCAGGAAUCUAGAUAAUAGUUUAGCUUCUGCCUGAUACUGAUCCGGGAGCACAUGAUAUUUAUAUUUAAAAUUCCAGUAGUUAUAUUUAAUGAUCUCACCCCUGAGUUGGAAUUCUCGGGUGCCAA	0.82
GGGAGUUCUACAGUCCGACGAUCAGCUGUGGAGUUCAGUCCAGGCAUGAAGACUAAAUCUGCUUUACCAAGUAAGGUGUAAGGUUGCAUGUUUCAGUCCUCUACCAUCCUGCACUGUGAGCAGCACUAUACCUUGGAAUUCUCGGGUGCCAA	10.2
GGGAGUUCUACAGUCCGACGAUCUUACAGUGCUGCAAAGUUGUGUGCAUCGCUAAAGAGAGCCCCAACCUAUACAGAGAGCAAACAAUGAGAUAAGAGGAACUGUCGCAAAGCUUUCCACUGAAACACAGGUCUGGAAUUCUCGGGUGCCAA	0.382

Study 2
Target: ABI1, truncated, D143A, DHFR fusion (Arabidopsis thaliana)
Method: DHFR PCA, deep sequencing
Medium: yeast
Notes: methotrexate growth selection, single substitutions
Together with: (+)-ABA 0.0091 µM
Reference: wild-type fitted maximum
Reading: higher = stronger binding
Starting sequence: PYL1, truncated, DHFR fusion (Arabidopsis thaliana); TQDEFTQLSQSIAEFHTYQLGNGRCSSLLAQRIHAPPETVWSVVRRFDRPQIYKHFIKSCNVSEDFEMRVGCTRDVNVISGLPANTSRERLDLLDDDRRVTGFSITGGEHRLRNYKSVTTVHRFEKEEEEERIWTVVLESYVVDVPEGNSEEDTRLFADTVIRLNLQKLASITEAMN; partner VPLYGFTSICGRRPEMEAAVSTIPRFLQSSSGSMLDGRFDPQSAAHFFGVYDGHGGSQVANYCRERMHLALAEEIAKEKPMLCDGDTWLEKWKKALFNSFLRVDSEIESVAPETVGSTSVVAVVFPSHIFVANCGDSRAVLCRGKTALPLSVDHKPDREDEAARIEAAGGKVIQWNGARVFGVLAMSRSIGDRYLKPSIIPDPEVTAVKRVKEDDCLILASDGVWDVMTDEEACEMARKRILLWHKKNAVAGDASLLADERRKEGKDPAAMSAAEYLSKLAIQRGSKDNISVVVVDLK
Change	relative binding score [%]
G102N	-9.83
S117Y	4.24
E151F	2.88
H16R	-1.25
N114K	0.639
S63G	40.8
S63Y	5.57
R132A	51.9
I79K	-0.517
S59W	9.04
L169T	-1.61
P83F	5.99
D3F	38.4
D144T	-1.07
N85R	56.9
G81C	33.9
G23A	4.72

Study 3
Target: Fragile X messenger ribonucleoprotein 1, C-terminal low-complexity region (Fmr1, Mus musculus, UniProt P35922)
Method: RNA Bind-n-Seq
Form: RNA
Medium: in vitro
Tested at: 200 nM
Notes: whole 134-nt RNA, ends assumed
Together with: 150 mM LiCl
Reference: input library
Reading: higher = stronger binding
Library: 7-deaza-guanosine replaces G
Oligonucleotide	log2 enrichment
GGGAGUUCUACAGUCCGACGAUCACCAUGCAGGUGGGCAUCUUUGGGAAGUGGGGCAAGGGGGGGAUAGGAAAGGGGGUAACACUUUGGGAACAGGUGGUCCCAGGUCGUUUCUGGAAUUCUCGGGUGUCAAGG	1.02
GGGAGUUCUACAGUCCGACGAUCGUCCUGUGCUACACAUCGUAUGUACCGAAUCGGAAAAAAGGGAAAAAAGGGAAAAAAGGAAAGUAUUAUGUUACGCCGUUCGGAUCUGCAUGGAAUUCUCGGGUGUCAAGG	-0.141
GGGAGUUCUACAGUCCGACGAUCUCAAGUCCUGUGCUACACAUCGUAUGUACCGAAUCGGUUUGGAAAAAAAGGAGGAAAGUAUUAUGUUACGCCGUUCGGAUCUGCACUUCCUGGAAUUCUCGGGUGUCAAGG	-0.649
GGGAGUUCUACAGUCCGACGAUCUCAAGUCCUGUGCUACACAUCGUAUGUACCGAAUCGGUUUGGUUUGGUUUUUGGAAAGUAUUAUGUUACGCCGUUCGGAUCUGCACUUCCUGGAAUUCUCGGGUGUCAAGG	-1
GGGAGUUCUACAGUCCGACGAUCCAAGUCCUGUGCUACACAUCGUAUGUACCGAAUCGGGAGGGAAAGGGUUUUUGGGAAAGUAUUAUGUUACGCCGUUCGGAUCUGCACUUCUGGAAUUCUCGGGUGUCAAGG	-1.15
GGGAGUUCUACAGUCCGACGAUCAAGUCCUGUGCUACACAUCGUAUGUACCGAAUCGGGGAGGGGAAAAAGGGGUGGGGAAAGUAUUAUGUUACGCCGUUCGGAUCUGCACUUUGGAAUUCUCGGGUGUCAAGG	0.347
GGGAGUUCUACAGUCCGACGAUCCUGUGCUACACAUCGUAUGUACCGAAUCGGGGAAAAAGGGGAAAAAAAGGGGUUUUUGGGGAAAGUAUUAUGUUACGCCGUUCGGAUCUGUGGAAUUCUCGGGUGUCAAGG	-0.347
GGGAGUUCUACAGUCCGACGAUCCUCAAGUCCUGUGCUACACAUCGUAUGUACCGAAUCGGAAAAAGGUUUGGAGGAAAGUAUUAUGUUACGCCGUUCGGAUCUGCACUUCCAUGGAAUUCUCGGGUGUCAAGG	-0.988
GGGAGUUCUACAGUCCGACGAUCCACAGACAACACGCACCCACACAGACACAGAGGGAAGGGGUUGGGAUGGGGACAGGGUGCACAGCAGGGCGGGAUAGGACCCCAGCCCCUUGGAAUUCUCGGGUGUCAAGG	1.17
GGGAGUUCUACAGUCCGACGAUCACCAUGCAGGUGGGCAUCUUUGGGAAGUGGGGCAAGGGGGGGAUAGGGAGGGGGGUAACACUUUGGGAACAGGUGGUCACAGGUCGUUUCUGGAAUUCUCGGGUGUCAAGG	1.33
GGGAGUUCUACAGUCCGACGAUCUGCGCCAACCUAGGCUUUCUUCUUCCUCUCCUCUUUAUAGGCGGAGUCGAUCUCCCAAAAGGAGAAGGUAGGCCUUCAGUCAUUUGUGAUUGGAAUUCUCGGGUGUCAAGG	-0.912

Study 4
Target: Interferon regulatory factor 7, full length, phosphomimetic (IRF7, Homo sapiens, UniProt Q92985, residues 1-503, S101K/S471D/S472D/S475D/S476D/S477D/S483D/S484D/S487D)
Method: protein-binding microarray
Form: double-stranded DNA, one strand shown
Medium: in vitro
Tested at: 250 nM
Notes: 60-bp whole probe
Together with: salmon DNA 0.4 mg/ml
Reference: random background probes
Reading: higher = stronger binding
Shared flanks, not repeated: GCCTAGCAC … GTCTTGATTCGCTTGACGCTGCTG
Residues (chain): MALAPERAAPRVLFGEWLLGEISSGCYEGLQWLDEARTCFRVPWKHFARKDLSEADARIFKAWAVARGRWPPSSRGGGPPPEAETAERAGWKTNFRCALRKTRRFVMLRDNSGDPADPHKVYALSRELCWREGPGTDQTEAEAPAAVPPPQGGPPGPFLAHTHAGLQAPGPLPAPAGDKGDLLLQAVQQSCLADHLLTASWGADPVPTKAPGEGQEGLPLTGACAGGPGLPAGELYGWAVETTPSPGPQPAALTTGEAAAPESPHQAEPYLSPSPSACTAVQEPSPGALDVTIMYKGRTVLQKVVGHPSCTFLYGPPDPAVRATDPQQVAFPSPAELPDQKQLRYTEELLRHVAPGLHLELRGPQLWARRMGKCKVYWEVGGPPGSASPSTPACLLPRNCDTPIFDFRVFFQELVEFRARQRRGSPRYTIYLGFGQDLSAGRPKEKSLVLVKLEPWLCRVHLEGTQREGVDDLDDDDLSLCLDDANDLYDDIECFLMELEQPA
Oligonucleotide	log fluorescence [z-score]
TTAGAACTGAGTATCCATTAGTGCTAG	-0.0447
TTAGGAATCGACACTGGGTTAGTGCTA	-0.0483
TCACTTTCCTTACTTCCCACTGTGCTA	2.88
ATAGGTTTCCTTATCCTTTAGTGCTAG	2.81
GACGGTATCGGGTATCGTGACGTGCTA	0.175
GCCCCTCTCCTCTCAGGAGCTGTGCTA	0.319
TTAGGTATCCTTCTCCATTAGTGCTAG	0.586
GACGGTTTCCTTCTCTTGACGTGCTAG	3.04
TCAAGTTTCACTTTCCAACTGTGCTAG	9.72
TTAGGTCTCGGACTGGTTTAGTGCTAG	0.62
GACGATCTCAGTATCGAGAAGTGCTAG	0.0454
TTCATTTTGTTCATCATTGCGTGCTAG	0.627
ATGCTGGTCACTCTCTGGGCGTGCTAG	-0.879
TTAGAACTGGGATTTCGATTAGTGCTA	0.468
GACGAACTGAGATTCGAGACGTGCTAG	0.433
GACGGTATCGGTTTTCGGGACGTGCTA	3.89
GACGATTGCAGTTTCGAGACGTGCTAG	3.1
GAAGGTATCGGGACTGGGGACGTGCTA	-0.281
GACGGTATCGGGTTTCGGGACGTGCTA	3.44
GACGAACTGCGTCTCGAGACGTGCTAG	-0.0684
GACGGACTGATTTTCCTGACGTGCTAG	0.0831
CCGCATATCGGGGTGCGCCCGGTGCTA	-0.00873
GACGAACTGGGGTATCCAGACGTGCTA	-0.855
TCAGGTAGCCTTATCCCACTGTGCTAG	-0.53
TCAATTTTTTTTCTAACACTGTGCTAG	0.486

Study 5
Target: CCNB3, cyclin fold, Cln2 fusion (human)
Method: yeast growth competition, sequencing
Medium: yeast
Notes: weak parent motif
Reference: not given
Reading: higher = stronger binding
Starting sequence: AKAP12 docking peptide (human); GSPLKKLFTSTGL; partner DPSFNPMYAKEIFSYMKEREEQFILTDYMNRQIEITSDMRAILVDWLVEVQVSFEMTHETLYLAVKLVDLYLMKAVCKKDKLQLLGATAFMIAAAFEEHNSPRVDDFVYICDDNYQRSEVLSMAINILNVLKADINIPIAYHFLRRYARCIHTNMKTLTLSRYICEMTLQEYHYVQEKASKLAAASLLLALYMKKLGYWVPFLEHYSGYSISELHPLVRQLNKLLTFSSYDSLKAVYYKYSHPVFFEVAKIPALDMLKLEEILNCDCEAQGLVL
Change	normalised enrichment score
L13A	0.243
P3A	0.37
K5R F8L	0.0474
K6A	-0.0345
T11A	-0.481
F8L	-0.284
G12A	-0.341
L4A	0.201
K5A L7A	0.0952
S10A	0.344
